Experimental data of several laboratories.
Every numbered part comes from another study and shows a few of its results, in no order. Positions count from the first letter of the parent shown.

Sample 1
Target: Histone acetyltransferase KAT6A, both winged helices, GST fusion (KAT6A, Homo sapiens, UniProt Q92794, residues 1-181)
Method: protein binding microarray
Form: double-stranded DNA, one strand shown
Medium: in vitro
Tested at: not given
Notes: 8-mer, flanks averaged, mean of 2 arrays, mostly near background
Relative to: not given
Direction: higher = stronger binding
Construct (chain): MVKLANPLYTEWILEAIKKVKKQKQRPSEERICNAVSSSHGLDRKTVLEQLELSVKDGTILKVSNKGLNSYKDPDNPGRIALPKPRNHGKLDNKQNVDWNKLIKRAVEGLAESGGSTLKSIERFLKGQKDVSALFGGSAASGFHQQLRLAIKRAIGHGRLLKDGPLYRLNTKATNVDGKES
Oligonucleotide	E-score
TTCTCCAA	-0.128
CCCTTTGA	-0.0957
CTGCATAC	-0.0364
ATTGTCTA	0.00236
GCCATAAA	0.00575
CGGGTTGA	0.185
ACACATAG	-0.148
CTTTCATC	-0.201
ACGTGGAT	-0.0603
CGCGATAG	0.162
ACGGAGTG	0.272
CCCACGCC	-0.0633
CTGTCTTC	-0.114
CGCGCTGC	0.295
ATCTAATG	-0.164
TACGTACA	0.0388
CGAGGTAA	0.00825
GTAGCCGA	0.0663
CCGGCAAC	0.189
TCTGCGAA	-0.0999
CATCAGAG	-0.0397
AGGATATG	-0.131
AATCGGCT	0.106
AGTGGCGG	0.103
ACGATGCC	0.0479

Sample 2
Target: Centromere-binding protein 1, full length, N-terminal tag (CBF1, Saccharomyces cerevisiae, UniProt P17106, residues 1-351)
UniProt P17106, sequence (whole entry, looked up): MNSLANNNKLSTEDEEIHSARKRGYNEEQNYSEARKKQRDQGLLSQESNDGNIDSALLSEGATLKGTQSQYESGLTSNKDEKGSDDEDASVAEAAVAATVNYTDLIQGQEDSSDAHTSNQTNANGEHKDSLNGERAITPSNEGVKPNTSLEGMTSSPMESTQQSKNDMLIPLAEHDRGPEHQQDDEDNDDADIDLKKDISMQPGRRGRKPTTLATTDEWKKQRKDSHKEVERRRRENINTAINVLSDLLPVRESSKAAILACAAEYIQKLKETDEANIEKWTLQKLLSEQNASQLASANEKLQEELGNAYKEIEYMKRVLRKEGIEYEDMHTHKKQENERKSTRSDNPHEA
Method: protein-binding microarray
Form: double-stranded DNA, one strand shown
Medium: in vitro
Tested at: 0.8 µM
Notes: whole 60-bp probe, no competitor
Direction: higher = stronger binding
Shared flanks, not repeated: … GTCTTGATTCGCTTGACGCTGCTG
Oligonucleotide	fluorescence intensity [a.u.]
TGTACGAAGCTATATCACCAGTATATAGTAGTTAGG	522
TGTACGAAGCTATTCCACGTGATTATAGTAGTTAGG	5970
GAAGTTTATTATAATAATGTGATCGTTTCTTTCTAG	633
GAATTATTTACAATTTTCGTGATTCTGTGTAAATAG	538
CTAAAAAAAAATTACCGCGTGAACTATGTCATATTC	551
GAACTACGAGGACGCGACGTGACTCAATTGGAATAG	783
TGTACGAAGCTATATCACGCTCTTATAGTAGTTAGG	638
CTAGTAGAAGCTCTCCTCATGACTTTGGGCTATTTC	502
GAATGAACCCAATTTCACGATATTTTAATATTCTAG	512
GAAACTCATTAAAACGGTATCACGTTTAAATATTAG	1840
TGTACGAAGCTATAACATGTGATTATAGTAGTTAGG	1890
GAAATTGTTTTTCATAATGTCACGTGCACTATCTAG	19500
CTACGATTATCTGATCACATTTAACAGAGAAATTTC	744
CTATTATTTTCCTGTGACTTCTGGGAAGCAGTTTTC	637
GAATCAATCATTATGGTGGTGATGATCCGTTTTTAG	541
GAATGATTTTCTATATACATGATGTATCGGAAGTAG	577
CTATCGTGTGTCATTCACATGCGCATATTTTTTTTC	845
GAAATCTGCGCCGTGCACGTTTTTACTTCCCCTTAG	667
CCTAACTACTATACTTACATCAGATAGCTTCGTACA	537
CCTAACTACTATAAACACCACCCATAGCTTCGTACA	535
GAACTACTGCCTTGGTCGGTCACCATTAAACTCTAG	526

Sample 3
Target: RNA binding protein fox-1 homolog 2, RRM domain, GST-SBP tag (RBFOX2, Homo sapiens, UniProt O43251-10, residues 100-194)
Method: RNA Bind-n-Seq
Form: RNA
Medium: in vitro
Tested at: 365 nM
Notes: natural RNA segment, single round, ends assumed
Relative to: no-protein control
Direction: higher = stronger binding
Shared flanks, not repeated: GGGAGUUCUACAGUCCGACGAUC … UGGAAUUCUCGGGUGCCAA
Target sequence (chain): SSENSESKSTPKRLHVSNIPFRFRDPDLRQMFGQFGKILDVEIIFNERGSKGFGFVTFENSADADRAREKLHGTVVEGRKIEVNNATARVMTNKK
Oligonucleotide	RBNS enrichment (R)
CAAAUGUGACAGGCUCUUUUUAGCAAAAUUUUUGAAAAUUUUUUUGGUAUUACUCUGAAACAAAAUUUAAGUUGGAGUUUCAGGGAUUUAGGGAGUAGUUUUCAUUCUAC	0.622
CCAAGUGAUAACACUGCUUUCUUAUACACUGGGAUCAUUGUCACUUGAAAAAAAAAACAUUAUUGUGGUUGUGGGAGAAAGCUCUAGAUCUGUGCCAUAAUAGAUAUGCA	3.78
CUGGCUCCCAUGACCAUACUGAGGGACCAACUGGGCCCAAGACAGAUGCCCCAGAGCUGUUUAUGGCCUCAGCUGCCUCACUUCCUACAAGAGCAGCCUGUGGCAUCUUU	0.686
CACCUGCCUGGGGCCUCGCAGCGGGGCCAGGGCUCCGCCUGCUGAUCGGGGGUUGUGAGCAGCGCGGCCUGGACGCGGGGCACUCUCAGGGGGCUGUGUCUGCGUGUCAG	0.729
UCUGUUUGAGUAAACUAAGACUGACAGGGGAAUCGGGGUGCUCACAAGCGAGUCCCUCCAGCUGCUUUAGGAGCCGCUGUGUUCCUGCUGUGUCUUACAGGACUGGAGUG	0.306
UCAGAUCACCCACAAUAAAGCGCAGCCCUUGCUGCAGCACCCGCUGCCAUCCUUGUCUCUGCUUCCUUGGGGAGGGCUGCAGGGUGGCACAGCAGCCUGGCGUCAGUGAC	0.72
AACUUGUACCACAAAACAAUAUCGCUUUAACUUUUCUAAAGCCAAAUUUCCCAUGUAAGCUGCAGUUUCUAUCUUUAGCCCAUCAUCAUUUUCUGCCCCCCCAAAAUCUG	0.614
UCCCUGCUUGGACACCUGAGCAUCUGAUUCCUGUCCCCCUGGUGCCAUCUGGCCUGGCUGGAGCCAGGAACAGGAGGGACACUUCCCCAGAAUCCGCAUGUUUCCCCAGU	1.61
UCUGUAAAGAUGCUUUAGAUUAGACUGUCAUGUCUCAGUGUCUAUCUGUAUAUAUUAUUUGAUAUUCAGAGAAUCUAAAGCACUCGUCUACUGUUUUAAUGAGAUUUAAC	0.444
UGAUUCUGGAAGGAGAAGUUGGUAUGUCUAGCUUCAUUGCGGCCCCUCGGGCUACCCAGCAAGAGGAUUCUGCAUCAAGGAACUGGACGAGCCGCUACCCAAACUGCCAC	0.25
GUAUAUAAAAGUAAAGAUGUAAUUAUAGGAUAUAGUGUUCCUGCUUUGUUUAAUAAGAACCUCAUUUAAACUUGACAGCUAUGGUAUUUUUUUAAUGAUAACUUCUUUUC	0.41
GCAGGAUAGGCAAAGCUGUGGAAUGUACAUUUCCUGGAUGUCAGGGGUGACCAAAACAGUACAUCAGUUCCUGAGAUAUUCAAGCAAAUGCCCCCGAUAGCAUAGUGUGU	0.262

Sample 4
Target: ABI1, truncated, D143A, DHFR fusion (Arabidopsis thaliana)
Method: DHFR PCA, deep sequencing
Medium: yeast
Notes: methotrexate growth selection, single substitutions
Together with: (+)-ABA 58 µM
Relative to: wild-type fitted maximum
Direction: higher = stronger binding
Parent: PYL1, truncated, DHFR fusion (Arabidopsis thaliana); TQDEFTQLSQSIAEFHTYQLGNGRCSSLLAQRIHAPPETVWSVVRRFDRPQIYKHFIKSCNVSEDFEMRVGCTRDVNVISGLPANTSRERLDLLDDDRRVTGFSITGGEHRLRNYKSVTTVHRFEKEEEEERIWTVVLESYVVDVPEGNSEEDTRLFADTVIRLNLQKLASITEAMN
Substitution	relative binding score
N177I	80.3%
R45A	41.8%
R98S	66.8%
R132P	104%
F47A	-4.35%
Y141H	21.8%
R32H	83.8%
V161P	-8.85%
V118R	95.2%
E38G	73.6%
N61H	87.5%
T39I	92.1%
K126F	93.2%
V43T	63%
E174V	69.6%
A158I	85.8%
R98D	56.2%
V145Y	6.49%
V143F	13.4%
H110N	94.4%

Sample 5
Target: CCNF, cyclin fold, Cln2 fusion (human)
Method: yeast growth competition, sequencing
Medium: yeast
Notes: strong parent motif
Relative to: not given
Direction: higher = stronger binding
Parent: ORC1 docking peptide (human); PRARKRLELGNLG
Substitution	normalised enrichment score
L12V	3.98
R4E	0.626
N11D	4.23
R4I	1.18
N11A	3.03
P1F	2.56
N11I	2.77
R2W	3.49
L7M	0.672
R4Q	1.87
P1M	2.71
G13A	3.03
P1T	3.22
G13Y	2.57
L9A	1.84
E8S	2.06
E8M	2.82
G13S	3.6

For quick reference, copied from above (sample 2):
Oligonucleotide	fluorescence intensity [a.u.]
TGTACGAAGCTATTCCACGTGATTATAGTAGTTAGG	5970
GAAGTTTATTATAATAATGTGATCGTTTCTTTCTAG	633
GAATTATTTACAATTTTCGTGATTCTGTGTAAATAG	538
CTAAAAAAAAATTACCGCGTGAACTATGTCATATTC	551
GAACTACGAGGACGCGACGTGACTCAATTGGAATAG	783
TGTACGAAGCTATATCACGCTCTTATAGTAGTTAGG	638
